Measurements collected from several papers.
Compare with care: the assays were run in different laboratories. Numbers after ± are the reported error.
PTH1R: Parathyroid hormone/parathyroid hormone-related peptide receptor (PTH1R, Homo sapiens, UniProt Q03431)
CES1: Liver carboxylesterase 1 (CES1, Homo sapiens, UniProt P23141)

CCCCCC[N+](CCCCCC)(CCCCCC)CCCCCC
remaining current (Potassium channel subfamily K member 2 (Kcnk2, Rattus norvegicus, UniProt Q920B6); ion current, blocker, inside-out patch clamp; Xenopus oocytes; 1 µM, added: pH jump 8 to 5; reference: control current): ~50%

C=C[C@]12CCC(=O)C=C1CC[C@H]1[C@@H]3CC[C@H](C(C)=O)[C@@]3(C)CC[C@@H]12
PKA activation (Membrane progesterone receptor epsilon (Paqr9, Mus musculus, UniProt Q6TCG2); pPKA/PKA immunoblot; MDA-MB-231 expressing Paqr9-GFP; 100 nM, 20 min; reference: control): 159 ± 8.94%

CC(=O)NCCN(CC(=O)NCCN(CC(=O)NCCN(CC(=O)NCCC(N)=O)C(=O)C[C@@H](N)CCCNC(=N)N)C(=O)C[C@@H](N)CCCNC(=N)N)C(=O)C[C@@H](N)Cc1ccccc1
heat capacity change ΔCp (HIV-1 TAR RNA; concentration not given): -1.99 ± 0.28 kJ/mol/K

C=C1C(=O)O[C@H]2[C@H]1CCC(COC(=O)CCCCCCCCCCCNC(=O)CCCC[C@@H]1SC[C@@H]3NC(=O)N[C@@H]31)=C1CC[C@@](C)(O)[C@@H]12
enrichment ratio (Inositol 1,4,5-trisphosphate receptor type 2 (Homo sapiens, UniProt Q14571); competitive pull-down LC-MS/MS, measured: ITPR2; M9-ENL1 cell lysate; added: probe 10 µM; reference: MCL-treated control): 4 fold

CSCC[C@H](NC(=O)[C@H](CC(C)C)NC(=O)[C@H](CCC(N)=O)NC(=O)[C@H](Cc1c[nH]cn1)NC(=O)[C@H](CCC(=O)O)NC(=O)[C@H](CO)NC(=O)[C@@H](NC(=O)[C@@H](N)CO)C(C)C)C(=O)N[C@@H](Cc1c[nH]cn1)C(=O)N[C@@H](CC(N)=O)C(=O)N[C@@H](CC(C)C)C(=O)NCC(=O)N[C@@H](CCCCN)C(=O)N[C@@H](Cc1c[nH]cn1)C(=O)N[C@@H](CC(C)C)C(=O)N[C@@H](CC(N)=O)C(=O)N[C@@H](CO)C(=O)N[C@@H](CCSC)C(=O)N[C@@H](CCC(=O)O)C(=O)N[C@@H](CCCNC(=N)N)C(=O)N[C@H](C(=O)N[C@@H](CCC(=O)O)C(=O)N[C@@H](Cc1c[nH]c2ccccc12)C(=O)N[C@@H](CC(C)C)C(=O)N[C@@H](CCCNC(=N)N)C(=O)N[C@@H](CCCCN)C(=O)N[C@@H](CCCCN)C(=O)N[C@@H](CC(C)C)C(=O)N[C@@H](CCC(N)=O)C(=O)N[C@@H](CC(=O)O)C(=O)N[C@H](C(=O)N[C@@H](Cc1c[nH]cn1)C(=O)N[C@@H](CC(N)=O)C(=O)N[C@@H](Cc1ccccc1)C(=O)N[C@@H](CCCCNC(=O)c1ccc2c(c1)C1(OC2=O)c2ccc(N(C)C)cc2Oc2cc(N(C)C)ccc21)C(N)=O)C(C)C)C(C)C
kon (PTH1R; binding, NanoBRET; pH 5.5, acetate buffer): 440000 ± 200000 M⁻¹ s⁻¹

CC(=O)NCCN(CCC(=O)NCCN(CCC(=O)NCCN(CCC(=O)NCCC(N)=O)C(=O)[C@@H](N)CCCNC(=N)N)C(=O)[C@@H](N)CCCCN)C(=O)[C@@H](N)Cc1ccccc1
heat capacity change ΔCp (HIV-1 TAR RNA; concentration not given): -3.07 ± 0.16 kJ/mol/K

CC[C@H](C)[C@H](NC(=O)[C@@H](NC(=O)[C@H](C)NC(=O)[C@H](CCC(=O)O)NC(=O)[C@H](CO)NC(=S)Nc1ccc2c(c1)C(=O)OC21c2ccc(O)cc2Oc2cc(O)ccc21)C(C)C)C(=O)N[C@H](C(=O)N[C@H](C(=O)N1CCC[C@H]1C(=O)N[C@@H](Cc1ccccc1)C(=O)N[C@@H](CC(C)C)C(=O)N[C@H](C(=O)N[C@@H](CC(N)=O)C(=O)N[C@@H](CC(C)C)C(=O)O)[C@@H](C)O)[C@@H](C)CC)C(C)C
fold decrease in affinity (Rgg transcriptional regulator (Streptococcus pneumoniae, UniProt A0A0E7KI02); binding, fluorescence polarization; reference: wild-type peptide): ~8 fold

COc1cc(C(=O)NC2CCC(N3CCN(CC4CCC5(CCCC5)C4)CC3)CC2)c(F)cc1Nc1ncc2c(n1)N(C1CCCC1(F)F)CC(F)(F)C(=O)N2C (stereo not drawn)
inhibition (Insulin receptor-related protein (INSRR, Homo sapiens, UniProt P14616); cell-free assay, TR-FRET; 10 µM): 0.34%

CCCCCCCCCCCC(=O)Nc1ccc(OC)nc1C
specific activity (CES1; substrate; 50 µM, pH 8, 37 °C, enzyme purity 25%): 19 pmol/min/µg

OCCn1nc(-c2ccccc2)c2c(Cl)c(-c3ccccc3)nnc21
EC90 (Clarin-1 (CLRN1, Homo sapiens, UniProt P58418, N48K); CLRN1 N48K expression; D6; 0.5 h exposure then 24 h in compound-free medium): 15 µM

COc1ccc(CNC(=O)c2sc3nc(C)cc(C)c3c2N)cc1
log β (Muscarinic acetylcholine receptor M4 (Rattus norvegicus, UniProt P08485); calcium mobilization, positive allosteric modulator; added: acetylcholine): 0.67

CC(C)(C)OC(=O)NCCNC(=O)CCNc1ncccn1
IC50 (C-X-C chemokine receptor type 4 (CXCR4, Homo sapiens, UniProt P61073); arrestin recruitment, DiscoverX): inactive

O=C1CC[C@H](N2Cc3cc(-c4cnn5ccc(NC6CCOCC6)nc45)ccc3C2=O)C(=O)N1
Dmax (Cereblon/Casein kinase I alpha (CSNK1A1/CRBN, Homo sapiens, UniProt P48729+Q96SW2); protein level, degrader, luciferase; MOLT-4): 14%

NC(=O)C1CCNC(=O)C(CCCNC(=O)c2cnccn2)NC(=O)C(CC2CCCCC2)NC(=O)C(CC2CC2)NC(=O)C=CC(=O)N1 (stereo not drawn)
enrichment factor (Serine/threonine-protein kinase pim-1 (PIM1, Homo sapiens, UniProt P11309); DNA-templated library selection; one selection round): 2.2

CCCCCCCC(=O)OC(C#N)c1ccc2cc(OC)ccc2c1 (racemic)
specific activity (CES1; substrate; 50 µM, pH 8, 37 °C, enzyme purity 25%): 950 pmol/min/µg

COc1c2c(cc3oc(=O)cc(-c4ccc(Cl)cc4)c13)C(=O)c1cc(C)cc(O)c1C2=O
inhibition (mushroom tyrosinase; enzyme activity; 100 µg/mL, added: L-DOPA): 86.34 ± 0.21%

CC(=O)NCCN(CC(=O)NCCN(CC(=O)NCCN(CC(=O)NCCC(N)=O)C(=O)C[C@@H](N)Cc1ccccc1)C(=O)C[C@@H](N)CCCNC(=N)N)C(=O)C[C@@H](N)CCCNC(=N)N
binding free energy ΔG° (HIV-1 TAR RNA; 25 °C): -8.84 ± 0.598 kcal/mol

CC(=N)NCc1cccc(CN)c1
Hill slope (Nitric oxide synthase 1 (Nos1, Rattus norvegicus, UniProt P29476); NMDA-evoked cGMP accumulation; immature rat hippocampal slices): 0.7 ± 0.4

CC1=[N+]2N=C(c3ccccc3)[O][Pd-2]2([Cl])[O+]=C2Oc3ccccc3C=C21 (stereo not drawn)
fluorescence quenching (calf thymus DNA; ethidium bromide displacement): 55.4%

CC(=O)NCCN(CCC(=O)NCCN(CCC(=O)NCCN(CCC(=O)NCCC(N)=O)C(=O)[C@@H](N)CCCNC(=N)N)C(=O)[C@@H](N)CCCNC(=N)N)C(=O)[C@@H](N)Cc1ccccc1
non-electrostatic ΔG° (HIV-1 TAR RNA; extrapolated to 1 M KCl): -8.246 ± 0.0478 kcal/mol

CSCC[C@H](NC(=O)[C@H](CO)NC(=O)[C@H](CC(N)=O)NC(=O)[C@H](CC(C)C)NC(=O)[C@H](CO)NC(=O)[C@H](CCCCN)NC(=O)CNC(=O)[C@H](CCCCN)NC(=O)[C@H](CC(=O)O)NC(=O)[C@H](Cc1c[nH]cn1)NC(=O)[C@H](CC(C)C)NC(=O)[C@H](CC(C)C)NC(=O)[C@H](CCC(N)=O)NC(=O)[C@H](Cc1c[nH]cn1)NC(=O)[C@H](CCC(=O)O)NC(=O)[C@H](CO)NC(=O)[C@@H](NC(=O)[C@H](C)N)C(C)C)C(=O)N[C@@H](CCC(=O)O)C(=O)N[C@@H](CCCNC(=N)N)C(=O)N[C@H](C(=O)N[C@@H](CCC(=O)O)C(=O)N[C@@H](Cc1c[nH]c2ccccc12)C(=O)N[C@@H](CC(C)C)C(=O)N[C@@H](CCCNC(=N)N)C(=O)N[C@@H](CCCCN)C(=O)N[C@@H](CCCCN)C(=O)N[C@@H](CC(C)C)C(=O)N[C@@H](CCC(N)=O)C(=O)N[C@@H](CC(=O)O)C(=O)N[C@H](C(=O)N[C@@H](Cc1c[nH]cn1)C(=O)N[C@@H](CC(N)=O)C(=O)N[C@@H](Cc1ccccc1)C(=O)N[C@@H](CCCCNC(=O)c1ccc2c(c1)C1(OC2=O)c2ccc(N(C)C)cc2Oc2cc(N(C)C)ccc21)C(N)=O)C(C)C)C(C)C
kon (PTH1R; binding, NanoBRET; HEK293 stably expressing receptor; room temperature, 0.02% sodium azide, added: 5 µM coelenterazine h): 680000 ± 200000 M⁻¹ s⁻¹

Repeated from above:
CC(=O)NCCN(CCC(=O)NCCN(CCC(=O)NCCN(CCC(=O)NCCC(N)=O)C(=O)[C@@H](N)CCCNC(=N)N)C(=O)[C@@H](N)CCCCN)C(=O)[C@@H](N)Cc1ccccc1
heat capacity change ΔCp (HIV-1 TAR RNA; concentration not given): -3.07 ± 0.16 kJ/mol/K

CC[C@H](C)[C@H](NC(=O)[C@@H](NC(=O)[C@H](C)NC(=O)[C@H](CCC(=O)O)NC(=O)[C@H](CO)NC(=S)Nc1ccc2c(c1)C(=O)OC21c2ccc(O)cc2Oc2cc(O)ccc21)C(C)C)C(=O)N[C@H](C(=O)N[C@H](C(=O)N1CCC[C@H]1C(=O)N[C@@H](Cc1ccccc1)C(=O)N[C@@H](CC(C)C)C(=O)N[C@H](C(=O)N[C@@H](CC(N)=O)C(=O)N[C@@H](CC(C)C)C(=O)O)[C@@H](C)O)[C@@H](C)CC)C(C)C
fold decrease in affinity (Rgg transcriptional regulator (Streptococcus pneumoniae, UniProt A0A0E7KI02); binding, fluorescence polarization; reference: wild-type peptide): ~8 fold
